Experimental data gathered from unrelated publications.
Each line is one published result; not all experiments were run side by side.

| Compound | cell line | test | conditions | EC50 |
| --- | --- | --- | --- | --- |
| COC1=C(C)C(=O)c2cc(=O)n(C)c(C)c2C1=O | 786-0 HRE-luciferase reporter cells | reporter gene, inhibitor | 24 h | > 100 µM |
| C[C@]12CCCN1CC1=NNC(=O)c3cc(F)cc4[nH]c2c1c34 | UWB1289 (BRCA1 deficient) | cell growth, inhibitor, CellTiter-Glo | 7 days | 0.054 µM |
| COc1cc(-c2nn(CCN3CCC(N(C)C)CC3)c3ncnc(N)c23)ccc1NC(=O)OC(C)(C)C | EPC-2 pre-malignant | cell viability, PrestoBlue | 120 h | 12.8 µM |
| COC(=O)N[C@H](C(=O)N[C@@H](Cc1ccccc1)[C@@H](O)CN(Cc1ccc(-c2ccccn2)cc1)NC(=O)[C@@H](NC(=O)OC)C(C)(C)C)C(C)(C)C | ΔE-expressing cells | ΔE mislocalization, high-content imaging | – | inactive |
| C[C@]1(c2nc3c(C(N)=O)cccc3[nH]2)CCCN1 | MDA-MB-436 (BRCA1 deficient) | cell growth, inhibitor, CellTiter-Glo | 7 days | 0.82 µM |
| CC(=O)OC[C@]12CCCC(C)(C)[C@@H]1CC[C@]1(C)[C@@H]2C[C@H]2OC(=O)[C@H]3[C@H](C(C)=O)[C@@H](O)C[C@@H]1[C@]23C | 786-0 HRE-luciferase reporter cells | reporter gene, inhibitor | 24 h | > 100 µM |
| C=CC[C@@H]1/C=C(\C)C[C@H](C)C[C@H](OC)[C@H]2O[C@@](O)(C(=O)C(=O)N3CCCC[C@H]3C(=O)O[C@H](/C(C)=C/[C@@H]3CC[C@@H](O)[C@H](OC)C3)[C@H](C)[C@@H](O)CC1=O)[C@H](C)C[C@@H]2OC | Jurkat FKBP12 knockout | NFAT luciferase reporter | – | 0.00947 µM |
| COc1cc2ccnc3c2c(c1OC)NC=C3 | 786-0 HRE-luciferase reporter cells | reporter gene, inhibitor | 24 h | > 100 µM |
| Cc1noc(C)c1CC(=O)N1CCOc2c(cc(-c3ccn(C)n3)cc2OCC2CCCN(C)C2)C1 (stereo not shown) | J774.A1 macrophages | cytotoxicity | – | > 50 µM |
| FC(F)(F)c1cc(-c2ccnc3[nH]c(C(F)(F)F)nc23)cc(C(F)(F)F)c1 | L6 myoblasts | oxygen consumption rate | – | > 100 µM |
| CNc1ncc2c(/C=C/C(=O)N3CCC(OC)CC3)nn(Cc3cccc(C(F)(F)F)c3)c2n1 | EPC-2 pre-malignant | cell viability, PrestoBlue | 120 h | 0.39 µM |
| CC1=NN(C)CC1c1cc2c(c(OCC3CCCN(C)C3)c1)OCCN(C(=O)Cc1c(C)noc1C)C2 (stereo not shown) | J774.A1 macrophages | cytotoxicity | – | > 50 µM |
| CC(C)c1nc(CN(C)C(=O)N[C@@H](CCN2CCOCC2)C(=O)N[C@H](CC[C@H](Cc2ccccc2)NC(=O)OCc2cncs2)Cc2ccccc2)cs1 | ΔE-expressing cells | ΔE mislocalization, high-content imaging | – | 17.5 µM |
| Cc1noc(C)c1CC(=O)N1CCOc2c(cc(-c3ccnn3C)cc2OCC2CCCN(C)C2)C1 (stereo not shown) | J774.A1 macrophages | cytotoxicity | – | > 50 µM |
| CC(C)(C)NC(=O)[C@@H]1CN(Cc2cccnc2)CCN1C[C@@H](O)C[C@@H](Cc1ccccc1)C(=O)N[C@H]1c2ccccc2C[C@H]1O | ΔE-expressing cells | ΔE mislocalization, high-content imaging | – | inactive |
| COc1cnc2cccc(N3CCc4c(cc(Cn5ccnc5C)cc4-c4cn(C)nc4C(F)(F)F)C3=O)c2c1 | SNU668 | cell growth, inhibitor | 120 h | 0.298 µM |
| CC(C)(C)NC(=O)[C@@H]1C[C@@H]2CCCC[C@@H]2CN1C[C@@H](O)[C@H](Cc1ccccc1)NC(=O)[C@H](CC(N)=O)NC(=O)c1ccc2ccccc2n1 | ΔE-expressing cells | ΔE mislocalization, high-content imaging | – | 7.52 µM |
| CCn1cc(-c2cc(Cn3ccoc3=N)cc3c2CCN([C@@H](C)c2cc(OC)ccn2)C3=O)c(C(F)(F)F)n1 | NCI-H1437 | cell growth, inhibitor | 120 h | > 30 µM |
| CC(=O)O[C@H]1C(=O)[C@@]2(C)[C@H]([C@H](OC(=O)c3ccccc3)[C@]3(O)C[C@H](OC(=O)[C@H](O)[C@@H](NC(=O)c4ccccc4)c4ccccc4)C(C)=C1C3(C)C)[C@]1(OC(C)=O)CO[C@@H]1C[C@@H]2O | CP-A pre-malignant | cell viability, PrestoBlue | 120 h | 0.00046 µM |
| CCn1cc(-c2cc(Cn3ccnc3)cc3c2CCN([C@H](c2cc(OC)ccn2)C2CC2)C3=O)c(C(F)(F)F)n1 | C32 | cell growth, inhibitor | 120 h | 19.6 µM |
| O=C(c1cc(Cc2n[nH]c(=O)c3ccccc23)ccc1F)N1CCN(C(=O)C2CC2)CC1 | UWB1289 (BRCA1 deficient) | cell growth, inhibitor, CellTiter-Glo | 7 days | 0.086 µM |
| CN1c2c([nH]c(N)nc2=O)NCC1CNc1ccc(C(=O)N[C@@H](CCC(=O)O)C(=O)O)cc1 (stereo partly shown) | WA09 MTHFR C677T(+/−) forebrain tissues | neural rosette emergence rescue | together with: methotrexate 1 µM | 3.7 µM |

Repeated from above:
| Compound | cell line | test | conditions | EC50 |
| --- | --- | --- | --- | --- |
| CC1=NN(C)CC1c1cc2c(c(OCC3CCCN(C)C3)c1)OCCN(C(=O)Cc1c(C)noc1C)C2 (stereo not shown) | J774.A1 macrophages | cytotoxicity | – | > 50 µM |
| COc1cnc2cccc(N3CCc4c(cc(Cn5ccnc5C)cc4-c4cn(C)nc4C(F)(F)F)C3=O)c2c1 | SNU668 | cell growth, inhibitor | 120 h | 0.298 µM |
| CC(=O)O[C@H]1C(=O)[C@@]2(C)[C@H]([C@H](OC(=O)c3ccccc3)[C@]3(O)C[C@H](OC(=O)[C@H](O)[C@@H](NC(=O)c4ccccc4)c4ccccc4)C(C)=C1C3(C)C)[C@]1(OC(C)=O)CO[C@@H]1C[C@@H]2O | CP-A pre-malignant | cell viability, PrestoBlue | 120 h | 0.00046 µM |
| CC(C)(C)NC(=O)[C@@H]1CN(Cc2cccnc2)CCN1C[C@@H](O)C[C@@H](Cc1ccccc1)C(=O)N[C@H]1c2ccccc2C[C@H]1O | ΔE-expressing cells | ΔE mislocalization, high-content imaging | – | inactive |
